Experimental data pooled from the literature.
Each line is one published result; not all experiments were run side by side.

With `COc1ccc(C2OC(=O)c3ccc(C)c(O)c32)cc1OC` (stereo not drawn) the CC50 was no less than 333 µM (J774.A1; cell growth or viability, resazurin; 24 h).
For `C=C1[C@@H](n2cnc3c(=O)[nH]c(N)nc32)C[C@H](O)[C@@]1(C#N)CO`, the CC50 was greater than 100 µM (HepG2.2.15; cell growth or viability, CCK-8; 14 days).
With `CCCCCc1ccc2c(c1O)C(c1ccc(OC)c(OC)c1)OC2=O` (stereo not drawn) the CC50 was no less than 561 µM (J774.A1; cell growth or viability, resazurin; 24 h).
`Cc1ccc(S(=O)(=O)Nn2c3c(cc(-c4nc5ccccc5s4)c2=O)CCCCCC3)cc1` has a CC50 of 280 µg/mL (BGM; cell growth or viability, trypan blue).
The CC50 of `CCc1ccc2c(c1O)C(c1ccc(OC)c(OC)c1)OC2=O` (stereo not drawn) is reported as no less than 159 µM (J774.A1; cell growth or viability, resazurin; 24 h).
`C=C(C)[C@@H]1CC[C@]2(C(N)=O)CC[C@]3(C)[C@H](CC[C@@H]4[C@@]5(C)CCCNC(C)(C)[C@@H]5CC[C@]43C)[C@@H]12` has a CC50 of 4.08 µM (primary HFF; cell viability, CellTiter-Glo; HCMV AD169 assay setting).
For `COC(=O)C1C(C=NNCC(F)(F)F)=Cc2cc3c(cc2C1c1cc(OC)c(OC)c(OC)c1)OCO3` (stereo not drawn), the CC50 was greater than 100 µM (mouse Splenocyte; cell growth or viability, resazurin; 48 h).
With `CCCCCc1ccc2c(c1O)C(c1ccc(OC)c(OC)c1OC)OC2=O` (stereo not drawn) the CC50 was no less than 129 µM (J774.A1; cell growth or viability, resazurin; 24 h).
The CC50 of `CC1(C)CC[C@]2(CO)CC[C@]3(C)C(=CC[C@@H]4[C@@]5(C)CCCNC(C)(C)[C@@H]5CC[C@]43C)[C@@H]2C1` is reported as 2.78 µM (primary HFF; cell viability, CellTiter-Glo; HSV-1 assay setting).
With `COc1ccc(OC(=O)/C=C/C#N)cc1` the CC50 was 38.8 µM (J774.A1; cell growth or viability, resazurin; 24 h).
With `COc1cc([C@@H]2c3cc4c(cc3C=C(C=O)[C@H]2C(=O)N2CCCC2)OCO4)cc(OC)c1OC` the CC50 was 80.1 µM (mouse Splenocyte; cell growth or viability, resazurin; 48 h).
`COc1ccc(C2OC(=O)c3cc4c(c(O)c32)CCCC4)c(OC)c1OC` (stereo not drawn) gave a CC50 of no less than 135 µM (J774.A1; cell growth or viability, resazurin; 24 h).
With `N#C/C=C/C(=O)Oc1ccc(Br)cc1` the CC50 was 109 µM (J774.A1; cell growth or viability, resazurin; 24 h).
`COc1ccc(C2OC(=O)c3cccc(O)c32)c(OC)c1OC` (stereo not drawn) has a CC50 of no less than 316 µM (J774.A1; cell growth or viability, resazurin; 24 h).
For `N#C[C@]1(CO)O[C@@H](n2cnc3c(N)nc(N)nc32)C[C@@H]1O`, the CC50 was 3.6 µM (HepG2.2.15; cell growth or viability, CCK-8; 14 days).
The CC50 of `COc1ccc(C2OC(=O)c3ccc(C(C)C)c(O)c32)c(OC)c1OC` (stereo not drawn) is reported as no less than 140 µM (J774.A1; cell growth or viability, resazurin; 24 h).
With `CC1(C)NCCC[C@]2(C)[C@H]3CC=C4[C@@H]5C[C@@](C)(CO)CC[C@]5(C)CC[C@@]4(C)[C@]3(C)CC[C@@H]12` the CC50 was 10.6 µM (primary HFF; cell viability, CellTiter-Glo; HSV-1 assay setting).
For `COC(=O)C1C(C=NN=CC2=Cc3cc4c(cc3C(c3cc(OC)c(OC)c(OC)c3)C2C(=O)OC)OCO4)=Cc2cc3c(cc2C1c1cc(OC)c(OC)c(OC)c1)OCO3` (stereo not drawn), the CC50 was greater than 100 µM (mouse Splenocyte; cell growth or viability, resazurin; 48 h).
`C[C@H]1[C@H](C)CC[C@]2(CO)CC[C@]3(C)C(=CC[C@@H]4[C@@]5(C)CCCNC(C)(C)[C@@H]5CC[C@]43C)[C@H]12` gave a CC50 of 7.87 µM (primary HFF; cell viability, CellTiter-Glo; HSV-1 assay setting).
`C=CCOC(=O)C1C(C=O)=Cc2cc3c(cc2C1c1cc(OC)c(OC)c(OC)c1)OCO3` (stereo not drawn) gave a CC50 of greater than 100 µM (mouse Splenocyte; cell growth or viability, resazurin; 48 h).
`C=C(C)[C@@H]1CCC=C2CC[C@]3(C)[C@H](CC[C@@H]4[C@@]5(C)CCCNC(C)(C)[C@@H]5CC[C@]43C)[C@H]21` has a CC50 of 4.79 µM (C-33 A; cell viability, CellTiter-Glo).
With `Cc1ccc(S(=O)(=O)Nn2c3c(cc(-c4nc5ccccc5s4)c2=O)CCCC3)cc1` the CC50 was 240 µg/mL (BGM; cell growth or viability, trypan blue).
The CC50 of `C=C(C)[C@@H]1CC[C@]2(C(=O)n3ccnc3)CC[C@]3(C)[C@H](CC[C@@H]4[C@@]5(C)CCCNC(C)(C)[C@@H]5CC[C@]43C)[C@@H]12` is reported as 6.14 µM (primary HFF; cell viability, CellTiter-Glo; HSV-1 assay setting).
`O=c1c(-c2nc3ccccc3s2)cc2c(n1NS(=O)(=O)c1ccc(Cl)cc1)CCCCCC2` has a CC50 of 310 µg/mL (BGM; cell growth or viability, trypan blue).

Repeated from above:
`COc1ccc(C2OC(=O)c3cc4c(c(O)c32)CCCC4)c(OC)c1OC` (stereo not drawn) gave a CC50 of no less than 135 µM (J774.A1; cell growth or viability, resazurin; 24 h).
With `N#C/C=C/C(=O)Oc1ccc(Br)cc1` the CC50 was 109 µM (J774.A1; cell growth or viability, resazurin; 24 h).
`COc1ccc(C2OC(=O)c3cccc(O)c32)c(OC)c1OC` (stereo not drawn) has a CC50 of no less than 316 µM (J774.A1; cell growth or viability, resazurin; 24 h).
